Results from different studies.
± gives the spread as reported.
Tumor necrosis factor receptor superfamily member 9/Nectin-4: Tumor necrosis factor receptor superfamily member 9/Nectin-4 (Homo sapiens, UniProt Q07011+Q96NY8)
Chain of UniProt Q96NY8 (whole entry, looked up): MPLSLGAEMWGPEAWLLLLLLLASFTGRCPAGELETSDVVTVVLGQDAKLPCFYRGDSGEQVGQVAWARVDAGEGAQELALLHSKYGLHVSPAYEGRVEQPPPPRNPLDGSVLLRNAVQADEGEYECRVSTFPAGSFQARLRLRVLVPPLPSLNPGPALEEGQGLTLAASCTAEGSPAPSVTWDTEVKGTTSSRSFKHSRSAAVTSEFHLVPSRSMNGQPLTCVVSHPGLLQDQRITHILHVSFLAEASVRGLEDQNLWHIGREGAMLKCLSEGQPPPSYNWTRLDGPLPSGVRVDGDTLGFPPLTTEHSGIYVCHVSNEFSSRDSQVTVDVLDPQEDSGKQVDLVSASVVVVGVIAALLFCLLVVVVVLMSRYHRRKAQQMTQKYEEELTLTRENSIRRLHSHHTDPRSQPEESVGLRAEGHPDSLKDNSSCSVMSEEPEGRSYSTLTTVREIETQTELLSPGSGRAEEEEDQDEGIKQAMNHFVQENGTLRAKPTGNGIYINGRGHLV
Chain of UniProt Q07011 (whole entry, looked up): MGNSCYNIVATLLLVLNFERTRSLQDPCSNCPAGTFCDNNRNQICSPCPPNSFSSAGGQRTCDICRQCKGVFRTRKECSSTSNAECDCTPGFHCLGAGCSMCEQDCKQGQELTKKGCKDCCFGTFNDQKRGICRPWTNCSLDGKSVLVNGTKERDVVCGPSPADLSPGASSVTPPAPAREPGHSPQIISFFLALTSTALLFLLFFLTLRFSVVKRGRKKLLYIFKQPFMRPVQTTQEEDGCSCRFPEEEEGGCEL
USP5 ZnF-UBD domain: Ubiquitin carboxyl-terminal hydrolase 5, ZnF-UBD domain (USP5, Homo sapiens, UniProt P45974)
Chain of UniProt P45974 (whole entry, looked up): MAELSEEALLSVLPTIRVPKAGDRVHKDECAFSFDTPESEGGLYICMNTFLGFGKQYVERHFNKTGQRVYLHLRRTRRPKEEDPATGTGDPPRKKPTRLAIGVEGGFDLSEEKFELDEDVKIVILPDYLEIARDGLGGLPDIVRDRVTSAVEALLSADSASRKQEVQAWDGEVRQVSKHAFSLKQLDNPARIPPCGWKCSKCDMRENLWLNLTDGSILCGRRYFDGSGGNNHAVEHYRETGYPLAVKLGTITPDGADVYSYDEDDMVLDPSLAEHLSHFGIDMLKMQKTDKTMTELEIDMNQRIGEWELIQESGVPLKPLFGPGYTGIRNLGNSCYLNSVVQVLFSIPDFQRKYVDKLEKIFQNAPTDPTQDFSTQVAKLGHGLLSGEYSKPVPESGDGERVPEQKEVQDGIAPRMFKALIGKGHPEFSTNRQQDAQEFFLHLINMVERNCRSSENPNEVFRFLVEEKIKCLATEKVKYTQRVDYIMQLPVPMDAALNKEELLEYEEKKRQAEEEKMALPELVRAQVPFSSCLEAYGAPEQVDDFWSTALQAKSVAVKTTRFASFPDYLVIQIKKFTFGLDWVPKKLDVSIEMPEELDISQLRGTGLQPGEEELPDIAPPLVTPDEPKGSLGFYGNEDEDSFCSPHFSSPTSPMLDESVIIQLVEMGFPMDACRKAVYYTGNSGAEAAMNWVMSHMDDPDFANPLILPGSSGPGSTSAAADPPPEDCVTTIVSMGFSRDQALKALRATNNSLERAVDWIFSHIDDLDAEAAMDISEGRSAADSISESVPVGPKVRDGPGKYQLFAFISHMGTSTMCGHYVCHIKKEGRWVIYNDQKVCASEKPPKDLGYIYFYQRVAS
uncharacterized protein: uncharacterized protein (Vulpes vulpes, UniProt A0A3Q7SVK8)
Toll-like receptor 1/2: Toll-like receptor 1/2 (Homo sapiens, UniProt O60603+Q15399)
Chain of UniProt O60603 (whole entry, looked up): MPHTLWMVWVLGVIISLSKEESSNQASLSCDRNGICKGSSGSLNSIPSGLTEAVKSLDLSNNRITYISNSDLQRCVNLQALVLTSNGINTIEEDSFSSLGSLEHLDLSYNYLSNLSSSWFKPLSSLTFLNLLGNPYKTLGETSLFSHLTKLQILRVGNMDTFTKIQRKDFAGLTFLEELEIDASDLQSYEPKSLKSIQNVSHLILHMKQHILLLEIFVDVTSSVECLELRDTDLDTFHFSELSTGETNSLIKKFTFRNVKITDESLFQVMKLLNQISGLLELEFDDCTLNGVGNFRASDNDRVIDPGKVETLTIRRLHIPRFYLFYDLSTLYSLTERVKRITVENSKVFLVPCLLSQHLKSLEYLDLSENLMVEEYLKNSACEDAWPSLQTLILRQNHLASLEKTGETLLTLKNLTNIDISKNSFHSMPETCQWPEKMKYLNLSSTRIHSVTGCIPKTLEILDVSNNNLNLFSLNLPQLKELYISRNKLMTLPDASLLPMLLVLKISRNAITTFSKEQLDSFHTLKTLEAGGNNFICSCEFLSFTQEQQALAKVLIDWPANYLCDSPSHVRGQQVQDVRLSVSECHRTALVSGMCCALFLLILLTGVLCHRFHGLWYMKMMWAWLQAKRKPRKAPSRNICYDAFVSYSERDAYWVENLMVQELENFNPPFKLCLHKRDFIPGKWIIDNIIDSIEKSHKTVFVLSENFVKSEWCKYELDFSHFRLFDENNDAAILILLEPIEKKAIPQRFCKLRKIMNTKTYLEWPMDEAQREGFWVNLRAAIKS
Chain of UniProt Q15399 (whole entry, looked up): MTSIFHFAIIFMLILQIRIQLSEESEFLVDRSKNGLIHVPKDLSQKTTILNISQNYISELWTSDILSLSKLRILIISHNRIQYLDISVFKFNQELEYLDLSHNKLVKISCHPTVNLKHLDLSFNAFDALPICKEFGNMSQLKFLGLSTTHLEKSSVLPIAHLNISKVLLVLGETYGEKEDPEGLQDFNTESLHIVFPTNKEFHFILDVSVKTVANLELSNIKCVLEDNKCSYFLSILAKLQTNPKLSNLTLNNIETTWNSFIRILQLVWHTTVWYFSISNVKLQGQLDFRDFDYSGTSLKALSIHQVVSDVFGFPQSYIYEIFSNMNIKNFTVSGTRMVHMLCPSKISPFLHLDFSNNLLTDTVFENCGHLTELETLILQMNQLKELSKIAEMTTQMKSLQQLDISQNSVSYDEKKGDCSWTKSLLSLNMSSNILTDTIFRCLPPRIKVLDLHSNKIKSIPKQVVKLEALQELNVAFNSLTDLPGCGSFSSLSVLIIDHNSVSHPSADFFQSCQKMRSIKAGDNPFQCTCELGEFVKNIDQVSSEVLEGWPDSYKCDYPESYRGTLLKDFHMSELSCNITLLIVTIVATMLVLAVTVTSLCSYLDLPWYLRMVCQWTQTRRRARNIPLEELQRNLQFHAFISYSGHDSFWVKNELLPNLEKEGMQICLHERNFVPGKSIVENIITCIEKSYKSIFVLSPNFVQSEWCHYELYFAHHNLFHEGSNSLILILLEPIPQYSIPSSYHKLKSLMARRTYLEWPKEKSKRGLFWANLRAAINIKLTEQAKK
Chain of UniProt P48729 (whole entry, looked up): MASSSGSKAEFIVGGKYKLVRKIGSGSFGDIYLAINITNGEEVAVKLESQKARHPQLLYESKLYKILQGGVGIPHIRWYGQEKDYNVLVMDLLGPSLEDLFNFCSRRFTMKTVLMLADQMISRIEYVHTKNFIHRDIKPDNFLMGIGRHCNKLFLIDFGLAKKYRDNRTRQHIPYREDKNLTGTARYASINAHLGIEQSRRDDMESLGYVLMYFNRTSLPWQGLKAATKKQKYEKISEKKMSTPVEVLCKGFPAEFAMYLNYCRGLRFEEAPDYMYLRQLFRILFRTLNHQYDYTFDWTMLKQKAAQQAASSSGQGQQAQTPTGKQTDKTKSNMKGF
Chain of UniProt P14618 (whole entry, looked up): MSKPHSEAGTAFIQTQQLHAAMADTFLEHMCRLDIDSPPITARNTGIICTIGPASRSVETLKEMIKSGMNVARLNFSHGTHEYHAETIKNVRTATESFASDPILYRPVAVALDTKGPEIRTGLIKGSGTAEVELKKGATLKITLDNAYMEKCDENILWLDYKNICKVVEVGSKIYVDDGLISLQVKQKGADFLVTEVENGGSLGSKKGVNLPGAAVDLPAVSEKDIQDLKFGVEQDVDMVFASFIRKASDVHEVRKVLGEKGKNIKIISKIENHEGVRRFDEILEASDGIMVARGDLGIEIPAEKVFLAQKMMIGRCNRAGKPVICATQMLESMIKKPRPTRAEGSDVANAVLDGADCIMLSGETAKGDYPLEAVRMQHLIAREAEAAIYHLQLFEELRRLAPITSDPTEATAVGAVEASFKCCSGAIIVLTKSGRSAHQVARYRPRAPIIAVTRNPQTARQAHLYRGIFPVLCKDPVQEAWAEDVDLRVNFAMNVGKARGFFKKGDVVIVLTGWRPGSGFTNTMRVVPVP
Chain of UniProt P14842 (whole entry, looked up): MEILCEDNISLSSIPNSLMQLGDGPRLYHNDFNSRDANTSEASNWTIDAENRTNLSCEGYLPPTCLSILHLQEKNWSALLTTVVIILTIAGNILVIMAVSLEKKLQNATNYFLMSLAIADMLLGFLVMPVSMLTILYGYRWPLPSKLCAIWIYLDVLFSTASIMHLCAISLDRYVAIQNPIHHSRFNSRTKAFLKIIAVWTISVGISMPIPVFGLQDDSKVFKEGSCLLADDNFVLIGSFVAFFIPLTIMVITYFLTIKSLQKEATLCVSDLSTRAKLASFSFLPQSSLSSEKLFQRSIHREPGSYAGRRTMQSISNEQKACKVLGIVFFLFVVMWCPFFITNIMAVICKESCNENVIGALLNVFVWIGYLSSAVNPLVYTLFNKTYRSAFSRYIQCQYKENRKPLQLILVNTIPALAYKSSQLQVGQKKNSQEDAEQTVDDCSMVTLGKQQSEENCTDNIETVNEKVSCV
Chain of UniProt Q13258 (whole entry, unmodified, looked up): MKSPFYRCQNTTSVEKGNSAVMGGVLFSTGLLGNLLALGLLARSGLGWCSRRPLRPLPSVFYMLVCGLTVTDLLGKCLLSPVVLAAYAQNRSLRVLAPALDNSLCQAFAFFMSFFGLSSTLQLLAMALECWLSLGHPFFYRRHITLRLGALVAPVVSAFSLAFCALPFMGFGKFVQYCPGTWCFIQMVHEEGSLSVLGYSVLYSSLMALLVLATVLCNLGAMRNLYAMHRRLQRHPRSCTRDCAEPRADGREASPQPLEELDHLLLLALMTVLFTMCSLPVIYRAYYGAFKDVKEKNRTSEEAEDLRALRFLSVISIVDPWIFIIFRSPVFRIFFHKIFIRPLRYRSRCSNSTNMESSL

SMILES | tested on | test | test system | setting | how to read | measurement | value
CCc1ncc(C)nc1CC | OR5K1 (Homo sapiens, UniProt Q8NHB7, A2T/I280V/T15M/V39I/Y193C) | cAMP, agonist | HEK293 transfected with OR5K1 |  |  | EC50 | 92.9 ± 14.6 µM
NCc1cc2c(cc1F)C(=O)N(C1CCC(=O)NC1=O)C2 (stereo not drawn) | Cereblon/Casein kinase I alpha (CSNK1A1/CRBN, Homo sapiens, UniProt P48729+Q96SW2) | degrader, Western blot | Hep3B | 24 h |  | DC50 | 0.035 µM
CCCC[C@@H]1NC(=O)[C@H](Cc2ccc(O)cc2)NC(=O)[C@@H]2CCCN2C(=O)[C@H](CC(=O)O)NC(=O)[C@H](C)NC(=O)[C@H](Cc2ccccc2)NC(=O)[C@@H]2CSCCC(=O)N3CN(CN(C3)C(=O)CCSC[C@@H](C(=O)N[C@@H](C)C(N)=O)NC1=O)C(=O)CCSC[C@H](NC(C)=O)C(=O)N[C@@H](CC(C)(C)C)C(=O)N1CCC[C@H]1C(=O)N[C@@H](CCC(=O)O)C(=O)N[C@H](CCCCNC(=O)CCc1cn(CCOCCOCCOCCOCCOCCC(=O)N[C@H]3CSCCC(=O)N4CN5CN(C4)C(=O)CCSC[C@H](NC(=O)[C@@H](CC(=O)O)NC(=O)[C@H](Cc4cccc6ccccc46)NC(=O)[C@@H]4CCCN4C3=O)C(=O)N[C@@H](CCSC)C(=O)N[C@@H](CCCCNC(=N)N)C(=O)N[C@@H](CC(=O)O)C(=O)N[C@@H](Cc3c[nH]c4ccccc34)C(=O)N[C@@H](CO)C(=O)N[C@@H]([C@@H](C)O)C(=O)N3CCC[C@H]3C(=O)N3C[C@H](O)C[C@H]3C(=O)N[C@@H](Cc3c[nH]c4ccccc34)C(=O)N[C@H](C(N)=O)CSCCC5=O)nn1)C(=O)N1CCC[C@H]1C(=O)N[C@@H](Cc1ccc(O)cc1)C(=O)N2 | Tumor necrosis factor receptor superfamily member 9/Nectin-4 | reporter gene, agonist | HT-1376 coculture with reporter cells |  |  | EC50 | 0.00126 µM
O=C(O)CCc1nccs1 | USP5 ZnF-UBD domain |  |  |  |  | Kd | > 1000 µM
CCc1nccnc1OC | uncharacterized protein | cAMP, agonist | HEK293 transfected with uncharacterized protein |  |  | EC50 | 323 ± 93.3 µM
CNc1ccccc1-n1cnc(-c2ccc([N+](=O)[O-])cc2)c1 | Toll-like receptor 1/2 | reporter gene, agonist | HEK-Blue hTLR2 | 24 h |  | EC50 | > 100 µM
CCc1nccnc1CC | uncharacterized protein | cAMP, agonist | HEK293 transfected with uncharacterized protein |  |  | EC50 | 1300 ± 744 µM
CCCCNc1ccc([N+](=O)[O-])cc1-n1cnc(-c2ccc([N+](=O)[O-])cc2)c1 | Toll-like receptor 1/2 | reporter gene, agonist | HEK-Blue hTLR2 | 24 h |  | EC50 | > 100 µM
CCCC[C@@H]1NC(=O)[C@H](Cc2ccc(O)cc2)NC(=O)[C@@H]2CCCN2C(=O)[C@H](CC(=O)O)NC(=O)[C@H](C)NC(=O)[C@H](Cc2ccccc2)NC(=O)[C@@H]2CSCCC(=O)N3CN(CN(C3)C(=O)CCSC[C@@H](C(=O)N[C@@H](C)C(N)=O)NC1=O)C(=O)CCSC[C@H](NC(C)=O)C(=O)N[C@@H](CC(C)(C)C)C(=O)N1CCC[C@H]1C(=O)N[C@@H](CCCCNC(=O)CCc1cn(CC(=O)N[C@H]3CSCCC(=O)N4CN5CN(C4)C(=O)CCSC[C@H](NC(=O)[C@@H](CC(=O)O)NC(=O)[C@H](Cc4cccc6ccccc46)NC(=O)[C@@H]4CCCN4C3=O)C(=O)N[C@@H](CCSC)C(=O)N[C@@H](CCCCNC(=N)N)C(=O)N[C@@H](CC(=O)O)C(=O)N[C@@H](Cc3c[nH]c4ccccc34)C(=O)N[C@@H](CO)C(=O)N[C@@H]([C@@H](C)O)C(=O)N3CCC[C@H]3C(=O)N3C[C@H](O)C[C@H]3C(=O)N[C@@H](Cc3c[nH]c4ccccc34)C(=O)N[C@H](C(N)=O)CSCCC5=O)nn1)C(=O)N[C@H](C)C(=O)N1CCC[C@H]1C(=O)N[C@@H](Cc1ccc(O)cc1)C(=O)N2 | Tumor necrosis factor receptor superfamily member 9/Nectin-4 | reporter gene, agonist | HT-1376 coculture with reporter cells |  |  | EC50 | 0.00083 µM
O=C(COP(=O)(O)O)[C@@H](O)[C@H](O)[C@H](O)COP(=O)(O)O | Pyruvate kinase PKM (PKM, Homo sapiens, UniProt P14618) | pyruvate kinase activity, activator | MGC-803 cell lysate | added: AIM |  | EC50 | 0.699 ± 0.313 µM
O=C(O)CCc1cn2cccnc2n1 | USP5 ZnF-UBD domain |  |  |  |  | Kd | > 1000 µM
CCCCC[C@H](O)/C=C/[C@H]1[C@H](O)CC(=O)[C@@H]1C/C=C\CCCC(=O)O | PTGER1 (Homo sapiens, UniProt P34995, F334A/G92A) | IP1 accumulation, agonist | AD293 |  |  | EC50 | 0.311 µM
Cn1cc2c(C(=O)O)ccc(NS(=O)(=O)c3ccc(OCC4CCC4)c(Cl)c3)c2n1 | HTR2B (Homo sapiens, UniProt P41595) | antagonist |  |  |  | EC50 | > 10 µM
CC(C)C[C@H](NC(=O)C[C@H](O)[C@H](CC(C)C)NC(=O)[C@H](Cc1c[nH]cn1)NC(=O)CNC(=O)[C@@H](NC(=O)[C@H](C)NC(=O)[C@H](Cc1c[nH]c2ccccc12)NC(=O)[C@H](CCC(N)=O)NC(=O)[C@@H](Cc1ccccc1)NC(=O)COCCOCCNC(=O)CCC(C(=O)O)N1CCN(CC(=O)O)CCN(CC(=O)O)CC1)C(C)C)C(N)=O (stereo partly drawn) [lutetium-177 labelled] |  |  | female BALB/c nu/nu mice, blood | intravenous, 50 pmol, 1 h |  | tissue uptake | 0.4 ± 0.1 %ID/g
Cn1cc(-c2ccc(-c3cncc(Cl)c3N3CCC4(CCNC4=O)CC3)cc2)cn1 | COLO 205 | gene expression, microarray, measured: POU2AF1 (BOB1) mRNA |  | concentration not given, 2 h | relative to: untreated cells | log2 fold change | -2.86
CCCC[C@@H]1NC(=O)[C@H](Cc2ccc(O)cc2)NC(=O)[C@@H]2CCCN2C(=O)[C@H](CC(=O)O)NC(=O)[C@H](C)NC(=O)[C@H](Cc2ccccc2)NC(=O)[C@@H]2CSCCC(=O)N3CN(CN(C3)C(=O)CCSC[C@@H](C(=O)N[C@@H](C)C(N)=O)NC1=O)C(=O)CCSC[C@H](NC(C)=O)C(=O)N[C@@H](CC(C)(C)C)C(=O)N1CCC[C@H]1C(=O)N[C@@H](CCC(=O)O)C(=O)N[C@H](CCCCNC(=O)CCOCCOCCOCCOCCOCCOCCOCCOCCOCCOCCOCCOCCn1cc(CCC(=O)NCCC(=O)N(C)CC(=O)N(C)CC(=O)N(C)CC(=O)N(C)CC(=O)N(C)CC(=O)N(C)CC(=O)N(C)CC(=O)N(C)CC(=O)N(C)CC(=O)N(C)CC(=O)N[C@H]3CSCCC(=O)N4CN5CN(C4)C(=O)CCSC[C@H](NC(=O)[C@@H](CC(=O)O)NC(=O)[C@H](Cc4cccc6ccccc46)NC(=O)[C@@H]4CCCN4C3=O)C(=O)N[C@@H](CCSC)C(=O)N[C@@H](CCCCNC(=N)N)C(=O)N[C@@H](CC(=O)O)C(=O)N[C@@H](Cc3c[nH]c4ccccc34)C(=O)N[C@@H](CO)C(=O)N[C@@H]([C@@H](C)O)C(=O)N3CCC[C@H]3C(=O)N3C[C@H](O)C[C@H]3C(=O)N[C@@H](Cc3c[nH]c4ccccc34)C(=O)N[C@H](C(N)=O)CSCCC5=O)nn1)C(=O)N1CCC[C@H]1C(=O)N[C@@H](Cc1ccc(O)cc1)C(=O)N2 | Tumor necrosis factor receptor superfamily member 9/Nectin-4 | reporter gene, agonist | HT-1376 coculture with reporter cells |  |  | EC50 | 0.00206 µM
N#C[C@@]12C[C@@H]1[C@@H](n1cnc3c(NC4CCCC4)nc(I)nc31)[C@H](O)[C@@H]2O | 5-hydroxytryptamine receptor 2A (Rattus norvegicus, UniProt P14842) | antagonist, Gq dissociation BRET |  | rat receptor |  | Kb | 5.51 µM
CC(=O)c1cc([N+](=O)[O-])c(Sc2cccc(Cl)c2Cl)s1 | enterokinase | enzyme activity, inhibitor |  |  |  | EC50 | > 50 µM
CCCC[C@@H]1NC(=O)[C@H](Cc2ccc(O)cc2)NC(=O)[C@@H]2CCCN2C(=O)[C@H](CC(=O)O)NC(=O)[C@H](C)NC(=O)[C@H](Cc2ccccc2)NC(=O)[C@@H]2CSCCC(=O)N3CN(CN(C3)C(=O)CCSC[C@@H](C(=O)N[C@@H](CNC(=O)CCOCCOCCOCCOCCOCCOCCOCCOCCOCCOCCOCCOCCn3cc(CCC(=O)NCCC(=O)N(C)CC(=O)N(C)CC(=O)N(C)CC(=O)N(C)CC(=O)N(C)CC(=O)N(C)CC(=O)N(C)CC(=O)N(C)CC(=O)N(C)CC(=O)N(C)CC(=O)N[C@H]4CSCCC(=O)N5CN6CN(C5)C(=O)CCSC[C@H](NC(=O)[C@@H](CC(=O)O)NC(=O)[C@H](Cc5cccc7ccccc57)NC(=O)[C@@H]5CCCN5C4=O)C(=O)N[C@@H](CCSC)C(=O)N[C@@H](CCCCNC(=N)N)C(=O)N[C@@H](CC(=O)O)C(=O)N[C@@H](Cc4c[nH]c5ccccc45)C(=O)N[C@@H](CO)C(=O)N[C@@H]([C@@H](C)O)C(=O)N4CCC[C@H]4C(=O)N4C[C@H](O)C[C@H]4C(=O)N[C@@H](Cc4c[nH]c5ccccc45)C(=O)N[C@H](C(N)=O)CSCCC6=O)nn3)C(N)=O)NC1=O)C(=O)CCSC[C@H](NC(C)=O)C(=O)N[C@@H](CC(C)(C)C)C(=O)N1CCC[C@H]1C(=O)N[C@@H](CCC(=O)O)C(=O)N[C@H](C)C(=O)N1CCC[C@H]1C(=O)N[C@@H](Cc1ccc(O)cc1)C(=O)N2 | Tumor necrosis factor receptor superfamily member 9/Nectin-4 | reporter gene, agonist | HT-1376 coculture with reporter cells |  |  | EC50 | 0.00107 µM
CCCCCCCC/C=C\CCCCCCCC(=O)NCCc1ccc(O)c(O)c1 | Trpv1 (Mus musculus, UniProt Q704Y3, T557S) | ion current, agonist, whole-cell patch clamp |  | 24 °C, T557S, +80 mV |  | EC50 | 0.31 ± 0.14 µM
CCCCC[C@H](O)/C=C/[C@H]1C(=O)C[C@H](O)[C@@H]1C/C=C\CCCC(=O)O | PTGDR (Homo sapiens, UniProt Q13258, R332A) | agonist |  |  |  | EC50 | 0.126 µM
CC[C@@H]1[C@H](F)C(=O)N[C@@H]1COc1nccc2cc(C(N)=O)c(OC)cc12 | PRKCI (Homo sapiens, UniProt P41743) | ATP-site binding, ActivX KiNativ profiling | THP-1 cell lysate | Lys2 PKCi probe site |  | IC50 | > 5 µM
CC(C)C[C@H](NC(=O)C[C@H](O)[C@H](CC(C)C)NC(=O)[C@H](Cc1c[nH]cn1)NC(=O)CNC(=O)[C@@H](NC(=O)[C@H](C)NC(=O)[C@H](Cc1c[nH]c2ccccc12)NC(=O)[C@H](CCC(N)=O)NC(=O)[C@@H](Cc1ccccc1)NC(=O)COCCOCCNC(=O)CCC(C(=O)O)N1CCN(CC(=O)O)CCN(CC(=O)O)CCN(CC(=O)O)CC1)C(C)C)C(N)=O (stereo partly drawn) [lutetium-177 labelled] |  |  | BALB/c nu/nu mice, salivary glands | 50 pmol, 1 h, added: PA 300 µg |  | tissue uptake | 0.3 ± 0.1 %ID/g
CCOCc1nc(O)c(-c2nnc(Cc3ccc(Cl)cn3)o2)c(O)c1-c1c(OC)cccc1OC | Apelin receptor (APLNR, Homo sapiens, UniProt P35414) | Gα12/P115 activation, agonist, BRET biosensor | HEK293 |  |  | EC50 | 0.00391 ± 0.00068 µM

For quick reference, copied from above:
SMILES | tested on | test | test system | setting | how to read | measurement | value
CCc1nccnc1CC | uncharacterized protein | cAMP, agonist | HEK293 transfected with uncharacterized protein |  |  | EC50 | 1300 ± 744 µM
NCc1cc2c(cc1F)C(=O)N(C1CCC(=O)NC1=O)C2 (stereo not drawn) | Cereblon/Casein kinase I alpha (CSNK1A1/CRBN, Homo sapiens, UniProt P48729+Q96SW2) | degrader, Western blot | Hep3B | 24 h |  | DC50 | 0.035 µM
CCCC[C@@H]1NC(=O)[C@H](Cc2ccc(O)cc2)NC(=O)[C@@H]2CCCN2C(=O)[C@H](CC(=O)O)NC(=O)[C@H](C)NC(=O)[C@H](Cc2ccccc2)NC(=O)[C@@H]2CSCCC(=O)N3CN(CN(C3)C(=O)CCSC[C@@H](C(=O)N[C@@H](C)C(N)=O)NC1=O)C(=O)CCSC[C@H](NC(C)=O)C(=O)N[C@@H](CC(C)(C)C)C(=O)N1CCC[C@H]1C(=O)N[C@@H](CCC(=O)O)C(=O)N[C@H](CCCCNC(=O)CCc1cn(CCOCCOCCOCCOCCOCCC(=O)N[C@H]3CSCCC(=O)N4CN5CN(C4)C(=O)CCSC[C@H](NC(=O)[C@@H](CC(=O)O)NC(=O)[C@H](Cc4cccc6ccccc46)NC(=O)[C@@H]4CCCN4C3=O)C(=O)N[C@@H](CCSC)C(=O)N[C@@H](CCCCNC(=N)N)C(=O)N[C@@H](CC(=O)O)C(=O)N[C@@H](Cc3c[nH]c4ccccc34)C(=O)N[C@@H](CO)C(=O)N[C@@H]([C@@H](C)O)C(=O)N3CCC[C@H]3C(=O)N3C[C@H](O)C[C@H]3C(=O)N[C@@H](Cc3c[nH]c4ccccc34)C(=O)N[C@H](C(N)=O)CSCCC5=O)nn1)C(=O)N1CCC[C@H]1C(=O)N[C@@H](Cc1ccc(O)cc1)C(=O)N2 | Tumor necrosis factor receptor superfamily member 9/Nectin-4 | reporter gene, agonist | HT-1376 coculture with reporter cells |  |  | EC50 | 0.00126 µM
